Assay results of several laboratories.
Compare with care: the assays were run in different laboratories. Several values in a cell are separate wells, animals, samples, runs or records. ± marks the error that the study gave.
UniProt P06213, sequence (whole entry, looked up): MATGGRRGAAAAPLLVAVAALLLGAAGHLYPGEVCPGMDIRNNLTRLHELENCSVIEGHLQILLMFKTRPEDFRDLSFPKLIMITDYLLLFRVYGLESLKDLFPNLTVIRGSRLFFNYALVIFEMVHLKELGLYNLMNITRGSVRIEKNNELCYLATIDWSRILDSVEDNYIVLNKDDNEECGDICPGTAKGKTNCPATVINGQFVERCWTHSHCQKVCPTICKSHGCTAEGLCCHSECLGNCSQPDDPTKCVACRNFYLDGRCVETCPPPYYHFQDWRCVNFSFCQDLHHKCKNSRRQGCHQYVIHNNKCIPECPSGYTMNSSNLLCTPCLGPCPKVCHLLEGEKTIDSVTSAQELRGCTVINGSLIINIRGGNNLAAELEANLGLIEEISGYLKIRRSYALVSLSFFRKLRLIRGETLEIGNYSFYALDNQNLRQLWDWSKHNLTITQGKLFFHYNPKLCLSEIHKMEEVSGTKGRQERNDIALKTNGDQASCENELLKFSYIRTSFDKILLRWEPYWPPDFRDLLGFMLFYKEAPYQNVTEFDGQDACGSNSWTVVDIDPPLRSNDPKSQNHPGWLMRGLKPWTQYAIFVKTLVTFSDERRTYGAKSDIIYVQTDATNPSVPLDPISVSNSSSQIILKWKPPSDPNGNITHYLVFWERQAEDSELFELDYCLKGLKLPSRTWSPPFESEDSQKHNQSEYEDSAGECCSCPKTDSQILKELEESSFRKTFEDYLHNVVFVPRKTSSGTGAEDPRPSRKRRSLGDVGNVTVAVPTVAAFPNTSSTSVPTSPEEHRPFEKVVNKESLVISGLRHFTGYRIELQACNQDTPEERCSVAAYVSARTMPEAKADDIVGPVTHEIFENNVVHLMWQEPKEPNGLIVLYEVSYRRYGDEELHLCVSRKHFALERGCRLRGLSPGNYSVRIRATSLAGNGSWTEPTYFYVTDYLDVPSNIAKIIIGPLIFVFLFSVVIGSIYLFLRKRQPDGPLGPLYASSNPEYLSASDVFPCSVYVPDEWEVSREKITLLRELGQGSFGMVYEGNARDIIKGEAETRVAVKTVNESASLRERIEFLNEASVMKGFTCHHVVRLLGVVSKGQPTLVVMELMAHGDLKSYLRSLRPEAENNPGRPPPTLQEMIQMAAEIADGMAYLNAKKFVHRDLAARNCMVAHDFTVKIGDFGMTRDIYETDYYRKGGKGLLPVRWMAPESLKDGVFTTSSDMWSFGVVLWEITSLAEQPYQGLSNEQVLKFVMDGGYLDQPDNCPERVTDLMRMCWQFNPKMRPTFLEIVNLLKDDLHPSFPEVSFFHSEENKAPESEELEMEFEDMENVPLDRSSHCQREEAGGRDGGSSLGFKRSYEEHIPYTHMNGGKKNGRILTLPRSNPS
UniProt Q8NEB9, sequence (whole entry, looked up): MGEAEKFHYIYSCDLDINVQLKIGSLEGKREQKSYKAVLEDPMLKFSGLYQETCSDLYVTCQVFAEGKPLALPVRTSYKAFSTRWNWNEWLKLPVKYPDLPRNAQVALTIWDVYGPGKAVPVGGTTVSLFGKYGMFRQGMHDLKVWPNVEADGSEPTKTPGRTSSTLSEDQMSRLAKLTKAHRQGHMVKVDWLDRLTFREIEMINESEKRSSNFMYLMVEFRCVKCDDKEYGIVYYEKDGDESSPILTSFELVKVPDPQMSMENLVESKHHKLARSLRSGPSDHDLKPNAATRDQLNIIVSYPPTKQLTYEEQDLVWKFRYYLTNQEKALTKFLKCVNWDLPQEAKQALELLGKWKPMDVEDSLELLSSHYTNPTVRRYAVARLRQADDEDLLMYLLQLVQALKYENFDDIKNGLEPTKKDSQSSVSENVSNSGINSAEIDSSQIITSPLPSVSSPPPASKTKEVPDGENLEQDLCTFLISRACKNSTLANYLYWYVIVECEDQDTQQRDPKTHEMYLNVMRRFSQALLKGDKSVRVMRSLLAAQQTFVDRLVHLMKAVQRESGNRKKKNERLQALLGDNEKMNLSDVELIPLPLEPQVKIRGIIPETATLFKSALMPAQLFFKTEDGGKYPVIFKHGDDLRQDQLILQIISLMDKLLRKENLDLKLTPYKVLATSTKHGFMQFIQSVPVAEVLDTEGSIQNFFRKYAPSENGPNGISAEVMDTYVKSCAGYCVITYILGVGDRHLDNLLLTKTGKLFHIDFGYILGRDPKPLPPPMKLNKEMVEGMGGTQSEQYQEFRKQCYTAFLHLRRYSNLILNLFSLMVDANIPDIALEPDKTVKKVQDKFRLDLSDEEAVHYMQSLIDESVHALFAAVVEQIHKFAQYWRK

O=C1C2CC3CC1CC(C(=O)N1CCN(c4ccc([N+](=O)[O-])c5ncccc45)CC1)(C3)C2  revertant colony count (Salmonella typhimurium; Ames test; TA97a; 0.05 µg/well, without S9 activation): 20 colonies/well
Fc1ccc(Nc2nc(NC3CCCCC3)c3ccccc3n2)cc1F  maximal inhibition (β2AR/β1AR ICL3 chimera; β-arrestin2 recruitment, antagonist, BRET; reference: isoprenaline maximal response): -4.2%
C=C(NC(=O)c1csc(-c2nc3c(cc2O)-c2nc(cs2)C(=O)NC(C(C)O)C(=O)NC(=C(C)OC)c2nc(cs2)C(=O)NC2c4nc(cs4)C(=O)NC(COC(=O)c4c5c6c(cccc6n4O)COC(=O)C(OC4CC(C)(O)C(N(C)C)C(C)O4)C2OC5)c2nc-3cs2)n1)C(N)=O (centres unmarked)  AUC(0-last) (cynomolgus monkey, both sexes, plasma; intravenous infusion, 9 mg/kg single dose): 44900 ± 10600 ng·h/mL
CNS(=O)(=O)Nc1nccc(Cc2c(C)c3ccc(Oc4ncccc4F)cc3oc2=O)c1F  IC50 (KU-812F; cell viability; 7 days): 0.945 nM
CC(C)(C)CC(C)(C)c1ccc(CO)cc1  average chemical shift perturbation (HBV core protein Cp149 dimer; solution NMR; 4 molar equivalents, pH 7.5, 295 K, average over eight residues; reference: apo Cp149 dimer): 0.09 ppm
Cc1nn(-c2cccc(N)c2)c(=O)c2cnc(Nc3ccc(N4CCNCC4)cc3)nc12  IC50 (Insulin receptor (INSR, Homo sapiens, UniProt P06213); kinase activity, inhibitor, SelectScreen kinase profiling): > 10000 nM
CCCCCC=CC=C1C(=O)C=CC1CC=CCCCC(=O)O (centres unmarked)  isoTOP-ABPP ratio (hippocalcin (human); IA-probe cysteine labelling, covalent modifier, competitive isoTOP-ABPP; proteome, soluble, MDA-MB-231; 100 µM, 60 min, in vitro; reference: DMSO over compound, higher = stronger blockade): 6.8
COc1ccccc1CCN1CNc2c(c(=O)[nH]c(=O)n2-c2cccc(Cl)c2C)C1  inhibition ratio (P2X7; ATP-evoked current, inhibitor, whole-cell patch clamp; 50 µM; reference: ATP alone): 1 and 0.95 and 0.94 and 0.99
COc1cc2ncnc(Oc3ccc(N)cc3F)c2cc1OC  binding free energy change (WDR5; reference: parent hit compound, negative = stronger binding): -0.99 kcal/mol
CCCCCCc1ccc2occc2c1  average chemical shift perturbation (HBV core protein Cp149 dimer; solution NMR; 4 molar equivalents, pH 7.5, 295 K, average over eight residues; reference: apo Cp149 dimer): 0.016 ppm
CC(=O)NCC1CCCCN1c1nc(NCCn2nnc(C)n2)nc(N2CC3C(CCOc4cc(-c5scnc5C)ccc4CNC(=O)[C@@H]4C[C@@H](O)CN4C(=O)[C@@H](NC(=O)C4(F)CC4)C(C)(C)C)C3C2)n1 (some centres unmarked)  cooperativity alpha (BRD9 and VHL-elongin C-elongin B; SPR; immobilized BRD9; reference: binary KD over ternary KD): > 26
CCN(CC)CC(=O)Nc1cccc(-n2cc(-c3ccc4ccc(-c5cn(-c6cccc(NC(=O)CN(CC)CC)c6)nn5)cc4c3)nn2)c1  IC50 (Phosphatidylinositol 3-kinase catalytic subunit type 3 (PIK3C3, Homo sapiens, UniProt Q8NEB9); enzyme activity, inhibitor): > 10000 nM
CCCCC(=O)N(C)c1ccc(OC)cc1  average chemical shift perturbation (HBV core protein Cp149 dimer; solution NMR; 4 molar equivalents, pH 7.5, 295 K, average over eight residues; reference: apo Cp149 dimer): 0.018 ppm
Cc1ncsc1-c1ccc(C(C)NC(=O)C2CC(O)CN2C(=O)C(NC(=O)CCCCCCCCCCN2CCCC(Nc3ncc(Cl)c(Nc4ccccc4S(=O)(=O)C(C)C)n3)C2)C(C)(C)C)cc1 (centres unmarked)  log2 fold change (22Rv1; RNA-seq, item: RPAP1 mRNA; concentration not given; reference: DMSO): -1.06
CCN(C(=O)c1cc(F)ccc1Oc1nncnc1N1CCC2(C1)CN([C@H](CCCN(C)CCOC)C(C)C)C2)C(C)C  GI50 (MDA-MB-435; cell growth or viability; 72 h): > 10 µM
CN1CCCNC(=O)c2cccc(c2)C(=O)NCCCN(C)CCCNc2cccc3c2C(=O)c2cccc(c2C3=O)NCCC1  log2 fold change (SAS; RNA-Seq, item: HNRNPA2B1 mRNA; 1 µM, 6 h; reference: untreated cells): 0.299
C=CC(=O)Nc1cccc(Cn2ncc3cnc(Nc4cnn(CCOC)c4)nc32)c1  percent of control (FES human; binding, KINOMEscan; 100 nM; lower = stronger binding): 100%
c1ccc(-c2n[nH]cc2-c2ccnc3ccccc23)nc1  log2 fold change (SSK2 (Candida albicans); kinase binding, MIB/MS competition; Candida albicans lysate; 10 µM; reference: DMSO): -0.36
Cc1cc(NC(=O)C(=O)N2C[C@@H](C)CC[C@@H]2c2ccc3scnc3c2)cnc1N  IC50 (PRMT5 human; western blot, item: SDMA; HAP1 MTAP wild type; 24 h): 180 nM
CC[C@H](C)[C@H](NC(=O)[C@@H]1CCCN1C(=O)[C@@H](NC(=O)[C@H](C)N)C(C)C)C(=O)N[C@@H](C)C(=O)N[C@@H](CCC(N)=O)C(=O)N[C@@H](CCCCN)C(=O)N[C@@H](CO)C(=O)N[C@@H](CCC(=O)O)C(=O)N1CCC[C@H]1C(=O)N[C@@H](Cc1ccccc1)C(=O)N[C@@H](CCCCN)C(=O)N[C@@H](CCCCN)C(=O)N[C@@H](CCCCN)C(=O)N[C@@H](CCCCNC(=O)CCCCCNC(=S)Nc1ccc2c(c1)C(=O)OC21c2ccc(O)cc2Oc2cc(O)ccc21)C(N)=O  log2 fold change (BIRC2 (human); concentration not given, 100-fold competition; reference: no competitor): 4.98
CC(=O)NCC1CCCCN1c1nc(NCC2Cc3ccccc3O2)nc(N2CC3C(CCOc4cc(-c5scnc5C)ccc4CNC(=O)C4CC(O)CN4C(=O)C(NC(=O)C4(F)CC4)C(C)(C)C)C3C2)n1 (centres unmarked)  cooperativity alpha (BRD9 and VHL-elongin C-elongin B; SPR; immobilized BRD9; reference: binary KD over ternary KD): > 37
Nc1ncc(-c2cc(-c3cnn(CC(F)(F)F)c3)ncc2F)nc1C(=O)NC1CNCC(F)C1 (centres unmarked)  remaining binding (MLCK; KINOMEscan competition binding; 1 µM; reference: DMSO control): 67%
CC(=O)NCCN(c1nc(N2CC3C(CCOc4cc(-c5scnc5C)ccc4CNC(=O)[C@@H]4C[C@@H](O)CN4C(=O)[C@@H](NC(=O)C4(F)CC4)C(C)(C)C)C3C2)nc(N2CC(n3ccnc3)C2)n1)C(C)C (some centres unmarked)  cooperativity alpha (BRD9 and VHL-elongin C-elongin B; SPR; immobilized BRD9; reference: binary KD over ternary KD): > 16
CC[C@H](C)[C@H](NC(=O)[C@H](CC(C)C)NC(=O)[C@H](C)NC(=O)[C@H](C)NC(=O)[C@@H]1CCCN1C(=O)[C@@H](NC(=O)[C@H](C)N)C(C)C)C(=O)N[C@@H](CC(C)C)C(=O)N[C@@H](CCCNC(=N)N)C(=O)N[C@@H](CCC(=O)O)C(=O)N[C@@H](CCCCN)C(=O)N[C@@H](CCCCN)C(=O)N[C@@H](CCCCN)C(=O)N[C@@H](CCCCNC(=O)CCCCCNC(=S)Nc1ccc2c(c1)C(=O)OC21c2ccc(O)cc2Oc2cc(O)ccc21)C(N)=O  log2 fold change (BIRC2 (human); concentration not given, 10-fold competition; reference: no competitor): 6.88
CC(C)C[C@@H](NC(=O)[C@@H](CC(C)C)NC(=O)[C@@H](CC(=O)O)NC(=O)[C@@H](CC(C)C)NC(=O)[C@@H](CC(C)C)NC(=O)[C@@H](CC(C)C)NC(=O)[C@H](NC(=O)[C@@H](CC(=O)O)NC(=O)[C@H](NC(=O)[C@H]1CCCN1C(=O)[C@@H](Cc1ccccc1)NC(=O)[C@@H](CC(C)C)NC(=O)[C@@H](CC(C)C)NC(=O)[C@@H](CC(=O)O)NC(=O)[C@@H](CC(C)C)NC(=O)[C@@H](Cc1ccc(O)cc1)NC(=O)[C@@H](C)NC(=O)[C@@H](CCCNC(=N)N)NC(=O)[C@@H](Cc1c[nH]c2ccccc12)NC(=O)[C@H]1CCCN1C(=O)[C@@H](CC(N)=O)NC(=O)[C@@H](CCC(N)=O)NC(=O)[C@@H](CC(=O)O)NC(=O)[C@@H](CC(=O)O)NC(=O)[C@@H](CSC1CC(=O)N(CCNC(=O)CN2CCN(CC(=O)O)CCN(CC(=O)O)CC2)C1=O)NC(=O)[C@@H](C)N)[C@H](C)O)[C@H](C)O)C(=O)N[C@H](Cc1c[nH]c2ccccc12)C(=O)O (some centres unmarked) [copper-64 labelled]  tissue uptake (C57BL/6 mice, female, B16-F10 melanoma, blood; intravenous, 24 h): 6.37 %ID/g
Cc1cn(CC(=O)N(CC(=O)N[C@H]2CCC[C@@H]2N(CC(=O)N[C@H]2COC[C@@H]2N(CC(=O)N[C@H]2COC[C@@H]2N(CC(=O)N[C@H]2COC[C@@H]2N(CC(=O)NCCOCCOCC(N)=O)C(=O)Cn2cnc3c(N)ncnc32)C(=O)Cn2cc(C)c(=O)[nH]c2=O)C(=O)Cn2cnc3c(N)ncnc32)C(=O)Cn2cnc3c(=O)[nH]c(N)nc32)[C@H]2CCC[C@@H]2NC(=O)CN(C(=O)Cn2cnc3c(=O)[nH]c(N)nc32)[C@H]2CCC[C@@H]2NC(=O)CN(C(=O)Cn2cc(C)c(=O)[nH]c2=O)[C@H]2COC[C@@H]2NC(=O)CN(C(=O)Cn2cnc3c(N)ncnc32)[C@H]2COC[C@@H]2NC(=O)CN(C(=O)Cn2cnc3c(=O)[nH]c(N)nc32)[C@H]2COC[C@@H]2N)c(=O)[nH]c1=O  Tm (complementary DNA; duplex formation, UV melting; PBS; 1 µM, pH 7.2): 84.52 ± 0.3 °C
CCCC[C@H](NC(=O)CCCCCCCNC(=O)CN1CCN(CC(=O)O)CCN(CC(=O)O)CC1)C(=O)N[C@H]1CC(=O)NCCCC[C@@H](C(N)=O)NC(=O)[C@H](Cc2c[nH]c3ccccc23)NC(=O)[C@H](CCCNC(=N)N)NC(=O)[C@@H](Cc2ccccc2)NC(=O)[C@H](Cc2c[nH]cn2)NC1=O [technetium-99m labelled]  tissue uptake (C57 mouse, kidneys; intravenous, 0.037 MBq, 24 h): 0.07 ± 0.1 %ID/g
COC1CN([C@H]2CC[C@H]([C@@]3(C)Oc4c(Cl)cc(C(=O)NCc5c(SC)cc(C)[nH]c5=O)c(C)c4O3)CC2)C1  log2 fold change (RNA-seq, item: PHLDA1; human, whole blood; dose not given, 24 h; reference: pretreatment baseline): 1.16
CC(C)OCc1ccc(CO)cc1  average chemical shift perturbation (HBV core protein Cp149 dimer; solution NMR; 4 molar equivalents, pH 7.5, 295 K, average over eight residues; reference: apo Cp149 dimer): 0.021 ppm
Fc1ccc(Nc2nc(NC3CCCCC3)c3cc(C(F)(F)F)ccc3n2)cc1F  pIC50 (β2AR/β1AR ICL3 chimera; β-arrestin2 recruitment, antagonist, BRET; together with: isoprenaline 1 µM): 6.2
CC(C)Cc1ccc(N)cc1  average chemical shift perturbation (HBV core protein Cp149 dimer; solution NMR; 4 molar equivalents, pH 7.5, 295 K, average over eight residues; reference: apo Cp149 dimer): 0.052 ppm
Cn1ncc2cc(-c3cncc(Cl)c3N3CCC4(CCNC4=O)CC3)ccc21  log2 fold change (LS174T; gene expression, microarray, item: EXD3 mRNA; concentration not given, 24 h; reference: untreated cells): 2.23
CC(C)OCc1ccc(O)cc1  average chemical shift perturbation (HBV core protein Cp149 dimer; solution NMR; 4 molar equivalents, pH 7.5, 295 K, average over eight residues; reference: apo Cp149 dimer): 0.038 ppm
CCC(=O)N(C)c1ccc(Cl)c(Cl)c1  inhibition (alpha 1 adrenergic receptor; binding, radioligand binding; 10 µM): < 10%
COC(=O)CCc1ccc(N)cc1  average chemical shift perturbation (HBV core protein Cp149 dimer; solution NMR; 4 molar equivalents, pH 7.5, 295 K, average over eight residues; reference: apo Cp149 dimer): 0.021 ppm
CC(=O)NCCN(c1nc(N2CC(Oc3ccccc3)C2)nc(N2CC3C(CCOc4cc(-c5scnc5C)ccc4CNC(=O)[C@@H]4C[C@@H](O)CN4C(=O)[C@@H](NC(=O)C4(F)CC4)C(C)(C)C)C3C2)n1)C(C)C (some centres unmarked)  cooperativity alpha (BRD9 and VHL-elongin C-elongin B; SPR; immobilized BRD9; reference: binary KD over ternary KD): > 57
CC(C)(C)CC(C)(C)c1ccc(N)cc1  average chemical shift perturbation (HBV core protein Cp149 dimer; solution NMR; 4 molar equivalents, pH 7.5, 295 K, average over eight residues; reference: apo Cp149 dimer): 0.103 ppm
C=CC(=O)N1[C@@H](c2ccc3c(c2)OCO3)c2[nH]c3ccccc3c2C[C@H]1C(=O)N1CCN(C)CC1  relative co-enrichment (human cyclin E1 wild type-3xFLAG:CDK2; co-IP with TMT proteomics, item: CKS1B; concentration not given, P61024; reference: wild type DMSO): 114%

Repeated from above:
CC(C)OCc1ccc(CO)cc1  average chemical shift perturbation (HBV core protein Cp149 dimer; solution NMR; 4 molar equivalents, pH 7.5, 295 K, average over eight residues; reference: apo Cp149 dimer): 0.021 ppm
Fc1ccc(Nc2nc(NC3CCCCC3)c3cc(C(F)(F)F)ccc3n2)cc1F  pIC50 (β2AR/β1AR ICL3 chimera; β-arrestin2 recruitment, antagonist, BRET; together with: isoprenaline 1 µM): 6.2
CC(C)Cc1ccc(N)cc1  average chemical shift perturbation (HBV core protein Cp149 dimer; solution NMR; 4 molar equivalents, pH 7.5, 295 K, average over eight residues; reference: apo Cp149 dimer): 0.052 ppm
Cn1ncc2cc(-c3cncc(Cl)c3N3CCC4(CCNC4=O)CC3)ccc21  log2 fold change (LS174T; gene expression, microarray, item: EXD3 mRNA; concentration not given, 24 h; reference: untreated cells): 2.23
CC(C)OCc1ccc(O)cc1  average chemical shift perturbation (HBV core protein Cp149 dimer; solution NMR; 4 molar equivalents, pH 7.5, 295 K, average over eight residues; reference: apo Cp149 dimer): 0.038 ppm
